Results gathered from unrelated publications.
Values joined by “and” are separate records of one study, mostly repeats; a detail may differ. ± gives the spread as reported.

Compound	cell line	assay	conditions	how to read	quantity	result
CCn1cc(-c2cc(Cn3ccoc3=N)cc3c2CCN([C@@H](C)c2cc(OC)ccn2)C3=O)c(C(F)(F)F)n1	DMS-273	cell growth, inhibitor	120 h	–	EC50	4030 nM
CCCCc1nc(Cl)c(CO)n1Cc1ccc(-c2ccccc2-c2nn[nH]n2)cc1	human PBMC	RNA-seq, refers to: GPR82 mRNA	10 µg/mL, 24 h	reference: untreated control	log2 fold change	-2.45
O=C(/C=C/C=C/C=C/C1CCCCC1)NC1=C[C@@](O)(/C=C/C=C/C=C/C(=O)NC2=C(O)CCC2=O)[C@@H]2O[C@@H]2C1=O	786-O	CellTiter-Glo	78 h	–	GI50	12000 nM
Brc1c(Br)c(Br)c2n[nH]nc2c1Br	HD-MB03	–	–	reference: DMSO	IC50	inactive
Cc1cc(N2CCc3c(c(C)nn3CC34CCC(NC(=O)[C@@H]5COCCN5)(CC3)CC4)C2)c2cnn(C)c2n1	human PBMC	qRT-PCR, refers to: IRF7 mRNA	100 nM, added: ssRNA	–	inhibition	88 ± 2%
CC(=O)O[C@@H]1CC[C@@]2(C)[C@@H](CC[C@]3(C)[C@@H]2C(=O)C=C2[C@@H]4[C@@H](C)[C@H](C)CC[C@]4(C)CC[C@]23C)[C@@]1(C)C(=O)O	RAW264.7	qRT-PCR, refers to: IL-10	concentration not given, unit not given, added: LPS	reference: LPS alone	mRNA level increase	2.48
O=C(C[C@@H](C(F)F)n1ccc(F)n1)N1CCC(O)(Cn2cnc3c(cnn3-c3ccc(F)cc3)c2=O)CC1	CHP-212 parental (wild-type USP7)	annexin V-PI flow cytometry	0.1 µM, 48 h	–	apoptotic cells (early plus late)	23.2% and 24.4% and 25.3%
CCN(Cc1cnc2nc(N)nc(N)c2n1)c1ccc(C(=O)N2CCC(C(=O)OC)CC2)cc1	786-O	high-content imaging, refers to: MitoTracker Red uptake	10 µM	–	mitochondrial toxicity	-8.37 ± 6.97%
COc1cccc(-c2cccc(NC(=O)CCc3cccc4c3B(O)OC4)c2)c1	HCT-116 CPSF3 mutant clones	–	–	reference: parental HCT-116	resistance	≥ 3.4 fold
COc1ccc2c(c1)[C@]1(C[C@H]1c1ccc3c(/C=C/c4ccc(CN5C[C@@H](C)O[C@@H](C)C5)cc4)n[nH]c3c1)C(=O)N2	HD-MB03	cell growth	168 h, DMSO	–	IC50	12.8 nM
Cc1cccc(-c2[nH]c(CNc3ccccc3F)nc2-c2ccc3ncnn3c2)n1	MM1.S pomalidomide-resistant	XTT	0.5 µM	–	viability	101% and 96% and 97%
CC(C)NCC(O)c1ccc(O)c(O)c1 (centres unmarked)	mouse ventricular cardiomyocytes	–	dose not given, 0.375 s	–	sarcomere length	1.8 µm
c1ccc2[nH]ccc2c1	HCT-8	RNA-seq, refers to: IGHE	concentration not given	–	mRNA level, LS mean	2.2 counts per million
CCc1c2c(nc3ccc(O)cc13)-c1cc3c(c(=O)n1C2)COC(=O)[C@]3(O)CC	HD-MB03	cell growth	DMSO	–	IC50	0.979 nM
COc1cc(/C=C/C(=O)N2CCC=CC2=O)cc(OC)c1OC	MDA-MB-468	qRT-PCR, refers to: HIF1A	30 µM, 6 h	reference: time zero	mRNA level	124 ± 9.1%
Cc1cc(Nc2ncc(Cl)c(Nc3ccccc3S(=O)(=O)C(C)C)n2)c(OC(C)C)cc1C1CCNCC1	CLB-GE	phosphoproteomics LC-MS/MS, refers to: SOS1 phosphorylation	200 nM, 60 min	reference: untreated	log2 fold change	-3.24
O=C(O)c1cc(Cl)ccc1S(=O)(=O)NCCCCN1C(=O)c2cccc3cccc(c23)C1=O	IEC-6	–	3.0 µM, 0.5 h, added: Adriamycin 1.7 µM 30 min	–	caspase-3/7 activity decrease	~50%
Cc1c(C)c2c(c(C)c1O)CCC(C)(COc1ccc(CC3SC(=O)NC3=O)cc1)O2 (centres unmarked)	hepatocytes, iPSC-derived, W2 line	cell viability, RealTime-Glo MT	48 h, differentiation day 23	–	IC50	67000 nM
C[C@H](Nc1ccc2c(c1)OCCn1cc(N3C(=O)OC[C@H]3C(F)F)nc1-2)C(N)=O	NCI-H1048	cell growth, CellTiter-Glo	120 h	–	Hill coefficient GR curve	0.595
CC[C@]1(O)C[C@@H]2CN(CCc3c([nH]c4ccccc34)[C@@](C(=O)OC)(c3cc4c(cc3OC)N(C)[C@H]3[C@@](O)(C(=O)OC)[C@H](OC(C)=O)[C@]5(CC)C=CCN6CC[C@]43[C@@H]65)C2)C1	HD-MB03	cell growth	168 h, DMSO	–	IC50	44.8 nM
CC/C(=N\NC(=O)NCc1cccc(O)c1)c1ccc(O)c(C)c1O	SK-OV-3	gene expression, microarray, refers to: ADRB2	10 µM, 24 h	reference: DMSO	log ratio	3.22
O=c1[nH]nc(OCCCc2ccc(Cl)cc2)c(NCc2cccnc2)c1Br	HEK-293T	RNA-seq GSEA, refers to: Hallmark apoptosis	concentration not given	direction not given	normalized enrichment score	1.42
O=C(NC[C@H](O)CO)c1ccncc1Nc1ccc(I)cc1F	HD-MB03	cell growth	168 h, DMSO	–	IC50	837 nM
CC(C)(c1ccc(O)cc1)c1ccc(O)cc1	HepG2 spheroids	Hoechst flow cytometry	1 µM, 96 h	–	G1 phase cells	72 ± 7.13%

Compound	cell line	assay	conditions	how to read	quantity	result
COc1cnc2cccc(N3CCc4c(cc(Cn5ccnc5C)cc4-c4cn(C)nc4C(F)(F)F)C3=O)c2c1	BICR6	cell growth	120 h	–	EC50	54.1 nM
CCN1CCN(Cc2ccc(Nc3ncc(F)c(-c4cc(F)c5nc(C)n(C(C)C)c5c4)n3)nc2)CC1	HD-MB03	cell growth	168 h, DMSO	–	IC50	378 nM
C[C@H](NC(=O)C(=O)Nc1ccccc1C(C)(C)C)C(=O)N[C@@H](CC(=O)O)C(=O)COc1c(F)c(F)cc(F)c1F	THP-1 cells expressing FKBP-caspase-4	pyroptosis, inhibitor	concentration not given, added: B/B dimerizer	–	LDH release	16.5% and 13.8% and 20.3%
C=CCn1c(=O)c2cnc(Nc3ccc(N4CCN(C)CC4)cc3)nc2n1-c1ccc2c(n1)[C@@](O)(CC)CC2	NCI-H1048	flow cytometry	concentration not given	–	G1 phase mitotic cells	0.08%
Nc1cccc2c1CN(C1CCC(=O)NC1=O)C2=O (centres unmarked)	bone marrow CD138+ myeloma cells	XTT	1.2 µM, phenol red-free RPMI	–	viability	77%
Clc1nc(NCc2ccco2)c2[nH]cnc2n1	FD iPSC-derived cardiomyocytes	alternative splicing, RNA-seq, refers to: FANCL exon chr2(-):58163028-58163074	unit not given	reference: DMSO minus compound	ΔPSI	-0.387
CCn1cc(-c2cc(Cn3ccnc3)cc3c2CCN([C@H](c2cc(OC)ccn2)C2CC2)C3=O)c(C(F)(F)F)n1	AU565	cell growth, inhibitor	120 h	–	EC50	6670 nM
C=Cc1c2[n-]c(c1C)/C=c1\[n-]/c(c(C)c1C=C)=C\c1[n-]c(c(CCC(=O)O)c1C)/C=c1\[n-]c(c(C)c1CCC(=O)O)=C2.[Sn+4]	SH-SY5Y	RNA-seq, refers to: FLT1 mRNA	5 µM, 5 h	reference: untreated cells	fold change	3.76
CC[N+](C)(CC)CCOC(=O)C(O)(c1ccccc1)C1CCCCC1 (centres unmarked)	primary rat hippocampal/cortical neuron-glia cultures	–	1 µM, added: 1 µM α-synuclein oligomers	–	reversal of trafficking deficit	-8.78%
Nc1cccc2c1C(=O)N(C1CCC(=O)NC1=O)C2=O (centres unmarked)	MM1.S	XTT	1.8 µM	–	viability	18% and 16% and 31%
CN(C/C=C/C#CC(C)(C)C)Cc1cccc2ccccc12	primary rat hippocampal/cortical neuron-glia cultures	–	1 µM, added: 1 µM α-synuclein oligomers	–	reversal of trafficking deficit	24.2%
CC(C)c1c2cc(-c3ccnc(NC4CCC(NC5CCOCC5)CC4)n3)ccc2nn1C (centres unmarked)	HD-MB03	–	concentration not given, added: ribociclib NG	reference: ribociclib over DMSO	fold change in IC50	1.42
O=C1c2ccncc2C(=O)c2c1[nH]c1ccccc21	pulmonary arterial smooth muscle cells, PAH patient	no effect	concentration not given	–	Mfn1 and Mfn2 protein levels	no effect
Cc1cc(NS(=O)(=O)c2ccc(NC(=O)/C(C#N)=C/c3ccc(N4CCCCC4)cc3)cc2)no1	HCT-116	qRT-PCR, refers to: cyclin A1	concentration not given	reference: untreated	mRNA level decrease	2.3 fold
COc1cc2ncnc(Nc3ccc(Oc4ccccc4)cc3C)c2cc1OC.O=C(O)C(F)(F)F	SK-MEL-2 (NRAS Q61R)	resazurin	concentration not given, 72 h, added: trametinib	direction not given	Bliss synergy score	116%
Cc1cnc(NC2CCOCC2)nc1-n1cnc(C(=O)NC(CN)c2cc(F)cc(Cl)c2)c1 (centres unmarked)	A-375	flow cytometry	1 µM, 24 h	–	sub-G0 cells	0%
COc1ccc(-n2nc(C(C)=O)s/c2=N\N=C(/C)c2ccc(NC(=O)c3ccc(Cl)cc3)cc2)cc1	MCF7	–	5 µM	–	viability	3.71%
Cc1ccc2c(c1)C(=O)[C@]1(O)CCN(c3ccc4nc(C)ccc4c3)C1=N2.Cl	human low-passage GBM lines	Western blot, refers to: γH2AX	concentration not given	–	protein level	increased
CN(C)C/C=C/C(=O)Nc1ccc(C(=O)Nc2cccc(Nc3ncc(Cl)c(-c4c[nH]c5ccccc45)n3)c2)cc1	HD-MB03	–	concentration not given, added: ribociclib NG	reference: ribociclib over DMSO	fold change in IC50	1.73
Cn1cc(Nc2nccc(-c3ccc4c(c3)CN(C3COC3)CC[C@H]4NC(=O)c3cn(C(C)(C)C)nn3)n2)cn1	mouse splenic B cells	refers to: Macropinocytosis signalling	30 mg/kg, IgD-activated in vivo	reference: vehicle, direction not given	pathway activation z-score	2.33
NC(=O)C1CCCN1C(=O)Cc1ccc(N(CCCO)Cc2cnc3nc(N)nc(N)c3n2)cc1 (centres unmarked)	786-O	high-content imaging, refers to: MitoTracker Red uptake	10 µM	–	mitochondrial toxicity	18.8 ± 10.1%
CC/C(=N\NC(=O)C(C)Nc1ccccc1)c1ccc(O)c(C)c1O (centres unmarked)	SK-OV-3	Western blot, refers to: phospho-YAP	10 µM, 1 h, 2D culture, unit not given	reference: total YAP	protein level	0.43 ± 0.25
Cn1cc(-c2ccc(-c3cncc(Cl)c3N3CCC4(CCNC4=O)CC3)cc2)cn1	COLO 205	gene expression, microarray, refers to: PCK1 mRNA	concentration not given, 6 h	reference: untreated cells	log2 fold change	1.9

A few entries again:
Compound	cell line	assay	conditions	how to read	quantity	result
Clc1nc(NCc2ccco2)c2[nH]cnc2n1	FD iPSC-derived cardiomyocytes	alternative splicing, RNA-seq, refers to: FANCL exon chr2(-):58163028-58163074	unit not given	reference: DMSO minus compound	ΔPSI	-0.387
CCn1cc(-c2cc(Cn3ccnc3)cc3c2CCN([C@H](c2cc(OC)ccn2)C2CC2)C3=O)c(C(F)(F)F)n1	AU565	cell growth, inhibitor	120 h	–	EC50	6670 nM
C=Cc1c2[n-]c(c1C)/C=c1\[n-]/c(c(C)c1C=C)=C\c1[n-]c(c(CCC(=O)O)c1C)/C=c1\[n-]c(c(C)c1CCC(=O)O)=C2.[Sn+4]	SH-SY5Y	RNA-seq, refers to: FLT1 mRNA	5 µM, 5 h	reference: untreated cells	fold change	3.76
CC[N+](C)(CC)CCOC(=O)C(O)(c1ccccc1)C1CCCCC1 (centres unmarked)	primary rat hippocampal/cortical neuron-glia cultures	–	1 µM, added: 1 µM α-synuclein oligomers	–	reversal of trafficking deficit	-8.78%
Nc1cccc2c1C(=O)N(C1CCC(=O)NC1=O)C2=O (centres unmarked)	MM1.S	XTT	1.8 µM	–	viability	18% and 16% and 31%
